Measurements from different studies.
Parts stem from different laboratories: compare values within a part only. Changes are numbered by the printed parent chain.

Block 1 — method: RNA Bind-n-Seq; form: RNA; medium: in vitro; concentration: not given; baseline: input RNA pool; direction: higher = stronger binding; quantity: bound/input enrichment
Target: RING finger protein unkempt homolog, zinc fingers 1-6, GST-SBP tag (UNK, Homo sapiens, UniProt Q9C0B0, residues 30-357)
Setting: RNA with constant flanks, human and mouse sites, ends assumed
Residues (chain): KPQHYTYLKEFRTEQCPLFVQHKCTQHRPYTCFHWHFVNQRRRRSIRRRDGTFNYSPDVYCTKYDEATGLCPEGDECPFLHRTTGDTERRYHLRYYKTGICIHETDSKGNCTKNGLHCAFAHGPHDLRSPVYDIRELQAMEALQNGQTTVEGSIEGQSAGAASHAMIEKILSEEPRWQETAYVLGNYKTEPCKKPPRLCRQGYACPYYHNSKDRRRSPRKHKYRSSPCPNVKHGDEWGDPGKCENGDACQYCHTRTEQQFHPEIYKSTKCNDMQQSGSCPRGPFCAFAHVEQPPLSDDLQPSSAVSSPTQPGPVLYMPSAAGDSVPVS
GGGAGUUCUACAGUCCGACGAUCCAGUUGGAAUUGAUCACACCUUUUCAGUUAUACUUCAAUCCUGAAUUAAUUUUUAAACAUUUUCAAAUCUGGAGGCUAAUCACCAAUUUCUUAUUUUUUGGUCCAGUUGGAUUCAAUUUUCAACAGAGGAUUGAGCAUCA: 0.851 ratio
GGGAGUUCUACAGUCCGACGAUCUCUGCUGUGCUGGAGAUCAUCUUUAAGGGCAAAGGAGUUGGAUUGCUGAAUUACAAUGAAACAUGUCUUAUUACUAAAGAAAGUGAUUUACUCCUGGUUAGUACAUUCUCAGAGGAUUCUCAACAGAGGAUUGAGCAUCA: 2.04 ratio
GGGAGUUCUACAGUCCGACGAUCGCCCCCCUUGAGGUUUUCCGGCGAUUUGUGUGGAACUUCUUCCGUCUGGAGAACGAGCAUCUAAAUAACUGUGGUGAAUUCCGAGCCGUGCGGGACAUCUCUGUGGCCCCCCUCAACGCGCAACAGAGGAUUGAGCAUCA: 0.337 ratio
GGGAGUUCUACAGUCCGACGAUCCCUGCUGUGAACAUUCAGCCAGAUGUUUCUGGAGGUUGGGACUGGCAUGCUAAACCAGGAGGCUUUGGAAUGGGAAGCAAGUCAGCUGCCACCAGCCCAACCGGAUCCUCGCAUGGUACUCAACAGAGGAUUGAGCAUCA: 0.0835 ratio
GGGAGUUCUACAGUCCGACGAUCGUGAUUGGCUAAUAAAUGUUUGUCAAAGGAAGAAAGAGCUAAAAGCUCGAACAGUAUGGCUUGGAUGUCCAGAGAAGUGUGAAGAGAAACAUCCUAGGAAUUCUAUCAAAAAUCAGAAAUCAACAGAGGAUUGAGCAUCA: 0.348 ratio
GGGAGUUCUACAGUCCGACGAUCGUCUGCAGUGAGUUCUGUCACUGCUGGAGAAAAGUGUGUUUUGACUUCUCAGAGAACGUCACUAGGGUCUGUCCAGCAGCACCCAAAGACUCAGUAGUGACAAGGCUGAGUUCUUGCAGGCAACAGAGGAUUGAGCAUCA: 0.176 ratio
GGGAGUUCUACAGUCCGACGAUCGGCUGUAUGUUUUAUACAUUACUUAUCGGGAGACCACCCUUCGACACUGACACAGUCAAGAACACAUUAAAUAAAGUAGUAUUGGCAGAUUAUGAAAUGCCAUCUUUUUUGUCAAUAGAGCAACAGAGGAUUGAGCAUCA: 4.8 ratio
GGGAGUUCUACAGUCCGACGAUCGGGGUGGACCUCUUUCUUAAUGUCCAGUGUCCUAUGUCAUAAGAUUCGGUGCAAUAAGUAUUUAGACCAGCAAUAAAUACUCAGCUUGGAGAUCAUCAUGAUCUUUGUGGGUAGCAUAUCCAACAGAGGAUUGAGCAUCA: 0.538 ratio
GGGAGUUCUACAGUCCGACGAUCCCUCAUGAGGUUCAGAAGCUGCAAUGUCCCAAGAUAAAGACUGUGGAUAUCAGUUUGAUUCUUUCUGAAGCCAUUCGGAGAAUCCACAAUGGAGAGUCCAUGGCCUACCUUUUCCGAAACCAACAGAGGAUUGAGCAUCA: 0.0835 ratio
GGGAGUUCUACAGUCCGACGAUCACAAUACUUUCCGUGGUCGUAUUCAUUAAAUGUUACUACAUUUCUGAAUUUUUGCAAAAAUGUAUUUUAUCAUAAAAUGGCAUUAUUUUAGAAAAUUUUAAAAACUGACAUGGUCAAUUCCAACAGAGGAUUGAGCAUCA: 10.6 ratio
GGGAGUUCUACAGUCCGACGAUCUCCUCAUCCAGCAGCACCGACUGGGACCUGGAUUUUGGGAGUCCUGUGGGGAACCAGGGGCAGCAUCCUGGAAAAGGAAGCCCACCAGGAAGCUCCCCACUGCAGGGUCUGGAGAAUUGUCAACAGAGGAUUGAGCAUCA: 0.067 ratio

Block 2 — method: RNA Bind-n-Seq; form: RNA; medium: in vitro; concentration: 365 nM; baseline: no-protein control; direction: higher = stronger binding; quantity: RBNS enrichment (R)
Target: RNA binding protein fox-1 homolog 2, RRM domain, GST-SBP tag (RBFOX2, Homo sapiens, UniProt O43251-10, residues 100-194)
Setting: natural RNA segment, single round, ends assumed
Residues (chain): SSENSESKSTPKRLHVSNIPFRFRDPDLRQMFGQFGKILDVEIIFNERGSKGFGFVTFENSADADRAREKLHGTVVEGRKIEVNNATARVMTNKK
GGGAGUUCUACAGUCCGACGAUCGGCUUGUGUACAGAUUGCUCUAUCCCAGAAGCAAGCCUUGGUUUGUUGAAGAGCUUUUCAUGUAUAGUAAACCAUGAUUCUGAGAGAAUCGAUUCUCCAAGGAGUCCUUCUGGAAUUCUCGGGUGCCAA: 0.254
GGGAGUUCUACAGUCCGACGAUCGUCAUUGUCCAUUUACUAUAAUUUAUCUGACCAUUUCCCUACUGUAAAAUACUUAAGACGGUUUCUGAUUUUUCCACUAUUUAAAUAAUGCUGUGAUGAAUAUCUUUAAAUGGAAUUCUCGGGUGCCAA: 0.602
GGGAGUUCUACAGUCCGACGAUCAUCAUGAAUUACCUUAUUUCCAAAAGCAAGUACUCAAAUAAUUGUCUCAAGAGAGGAAGGACAAAACUGUUACAAGCUGAAAUAUUUGGGGAUUUGUUUGACUUGACUAGUGGAAUUCUCGGGUGCCAA: 0.71
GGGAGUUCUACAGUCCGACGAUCUAGCACUGAGGAUUCUUGUUCCCUUGCCUUGCCCACUGCUCCCGACCUGAAGGCUGCCAACACUCCUCUAAGGACACUGGGUCACAUGCCAGCCACCUGUUCUCGCCACCUGGAAUUCUCGGGUGCCAA: 0.948
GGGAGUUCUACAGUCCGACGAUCCAUUGGGUGAUCAUUCACCAGUACAUUCUCAGUUUUUCUUAAUAUAUAGCAUUUAUGGUAAUCAUAUUAGACUUCUGUUUUCAAUCUCGUAUAGAAGUCUUCAUGAAAUGUGGAAUUCUCGGGUGCCAA: 0.63
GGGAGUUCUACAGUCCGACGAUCAGUGUAUGUGGUCCAUUAGAAAGGUUAAUUCCAACAAAGCAUUUAGUUUACAGAUCAUAAUCCUAAGCAGUCAGGAGAGAAAUACGAACAGAAAUUACAUGAGGAAUAUUUGGAAUUCUCGGGUGCCAA: 0.865
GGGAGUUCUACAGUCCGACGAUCGCUCCGGGCCAGCAUGUUGGAAUCCAGCGUGGAGCAGAUGCAGUAAAAAUGUGGUUGGUUUCUGUGUAAGCGCUGUUGUUGUUCUUUUGUUCUCUCACUCUCAUCUUUUAUGGAAUUCUCGGGUGCCAA: 23.9
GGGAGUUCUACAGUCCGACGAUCUCCUGUCUCAGCCUCCCCAGUAGCUGAGAUUGCAGGCACAUGCCACCACGCCCAGCUAAUAUUUUGUAUUUUCAGUAGGGACGGGGUUACACCAUGUUGGCCAGGCUGGUUGGAAUUCUCGGGUGCCAA: 0.54
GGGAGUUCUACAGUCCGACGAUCUGGUCAGAGGGACAGAGCAAGGAAUGCAUCCUGAGCCCACAGCUUUGACCACUGUGAUCCAGAAGAGAGGUGCACUACGUGGGAAGUGCUGAUUCCACAGCAUGCAGCCUUGGAAUUCUCGGGUGCCAA: 2.45
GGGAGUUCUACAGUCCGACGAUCUCAGAACAAGGCAAAGCAAUAACUGGAAUUGUGACUCGAGGGAUAGACCCCUGGAUGUGACUCUUCUUUUUAAAAGGAAACUAUGUGGAGGACGAUGCAAAAACAUAUUUUGGAAUUCUCGGGUGCCAA: 0.409
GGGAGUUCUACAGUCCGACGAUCGAAACGAAUCCUUGAGAGGAGCACUGUCCCGUCCCUUGCUCCUUAUGGCUGGUCCUCCUUCUUGCUCACUGACCCCUCUCCAGGACACUGUCCCUGAAGCCUUCGCAUCUUGGAAUUCUCGGGUGCCAA: 0.744
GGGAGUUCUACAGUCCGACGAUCCAUAGGACCUCUGGCAUUUUAGAAUUACUAGCUGAAAAAUUGUAAUGUACCAACAGAAAUAUUAUUGUAAGAUGCCUUUCUUGUAUAAGAUAUGCCAAUAUUUGCUUUAAUGGAAUUCUCGGGUGCCAA: 0.344

Block 3 — target: CCNA1, cyclin fold, Cln2 fusion (human); method: yeast growth competition, sequencing; medium: yeast; setting: weak parent motif; baseline: not given; direction: higher = stronger binding; quantity: normalised enrichment score
Parent: MICAL3 docking peptide (human); LQLRRQLSFSEDS; partner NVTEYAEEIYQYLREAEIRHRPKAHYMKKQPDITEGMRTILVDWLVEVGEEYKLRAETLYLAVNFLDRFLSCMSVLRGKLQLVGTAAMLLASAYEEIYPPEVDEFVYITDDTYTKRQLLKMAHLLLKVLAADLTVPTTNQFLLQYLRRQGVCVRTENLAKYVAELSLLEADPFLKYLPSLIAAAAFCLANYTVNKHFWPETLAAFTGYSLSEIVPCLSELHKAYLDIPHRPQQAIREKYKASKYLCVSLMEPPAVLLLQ
LQLRRQLSFSEVS [D12V]: 0.43
LQLRAQLSFSEDS [R5A]: 0.144
LQLRRQLRFSEDS [S8R]: -0.0287
LQLRRQVSFSEDS [L7V]: 0.358
LQLRRQHSFSEDS [L7H]: 0.0955
LQLRRQRSFSEDS [L7R]: 0.0215
LQLPRQLSFSEDS [R4P]: -0.0138
LQLRGQLSFSEDS [R5G]: 0.00422
LQLRRQLSMSEDS [F9M]: 0.392
LQLRRQLSQSEDS [F9Q]: 0.397
LQLRIQLSFSEDS [R5I]: 0.352
LQLRQQLSFSEDS [R5Q]: 0.143
LQLRRQFSFSEDS [L7F]: -0.276
LQLRRQLSFVEDS [S10V]: 0.175
LQLRRQLLFSEDS [S8L]: 0.615
LQLKRQLSFSEDS [R4K]: 0.179
LQLRRQLSFSERS [D12R]: 0.298
LLLRRQLSFSEDS [Q2L]: 0.397
LQLRRQWSFSEDS [L7W]: -0.048
LQLRRQLYFSEDS [S8Y]: 0.441
LQLRRQLSFSIDS [E11I]: -0.441
LQLRRQLSFSMDS [E11M]: -0.0362
LQKRRQLSFSEDS [L3K]: -0.115
LQLRRQLSFSEES [D12E]: 0.785
LQLRRQLSISEDS [F9I]: -0.0758

Block 4 — method: universal PBM; form: double-stranded DNA, one strand shown; medium: in vitro; concentration: 600 nM; direction: higher = stronger binding; quantity: E-score
Target: Sal-like protein 4, full length isoform A (SALL4, Homo sapiens, UniProt Q9UJQ4, residues 1-1053)
UniProt Q9UJQ4, sequence (whole entry, looked up): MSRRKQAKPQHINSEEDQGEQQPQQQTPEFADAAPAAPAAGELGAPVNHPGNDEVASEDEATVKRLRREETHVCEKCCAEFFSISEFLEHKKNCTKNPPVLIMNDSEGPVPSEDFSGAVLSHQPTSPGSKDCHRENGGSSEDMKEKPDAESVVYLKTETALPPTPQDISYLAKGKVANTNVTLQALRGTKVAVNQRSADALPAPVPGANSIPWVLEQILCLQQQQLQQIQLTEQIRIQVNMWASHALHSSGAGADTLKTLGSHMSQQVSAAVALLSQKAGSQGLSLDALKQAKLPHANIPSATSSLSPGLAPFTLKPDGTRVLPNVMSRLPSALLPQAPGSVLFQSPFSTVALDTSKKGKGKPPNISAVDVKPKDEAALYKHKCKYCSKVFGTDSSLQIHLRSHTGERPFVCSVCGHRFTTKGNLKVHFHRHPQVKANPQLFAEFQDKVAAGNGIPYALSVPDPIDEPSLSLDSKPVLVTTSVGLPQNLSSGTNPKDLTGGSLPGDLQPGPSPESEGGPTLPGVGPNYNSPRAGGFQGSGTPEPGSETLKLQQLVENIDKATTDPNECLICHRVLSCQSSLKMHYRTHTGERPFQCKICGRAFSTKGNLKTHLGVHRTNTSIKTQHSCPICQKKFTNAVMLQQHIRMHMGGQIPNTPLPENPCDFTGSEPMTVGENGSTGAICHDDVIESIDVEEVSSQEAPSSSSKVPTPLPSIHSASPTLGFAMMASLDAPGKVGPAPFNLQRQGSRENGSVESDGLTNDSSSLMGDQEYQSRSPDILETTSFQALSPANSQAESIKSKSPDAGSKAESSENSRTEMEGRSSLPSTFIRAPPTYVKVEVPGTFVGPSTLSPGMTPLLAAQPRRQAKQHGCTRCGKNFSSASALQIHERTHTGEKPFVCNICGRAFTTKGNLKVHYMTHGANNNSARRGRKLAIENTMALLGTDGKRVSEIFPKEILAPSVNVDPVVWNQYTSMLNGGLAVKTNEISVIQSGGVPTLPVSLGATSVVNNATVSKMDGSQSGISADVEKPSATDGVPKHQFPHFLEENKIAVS
Setting: 8-mer, flanks averaged, mean of replicates
AGGTCGAG: -0.0388
GGCTGAAA: 0.0154
AACCATCT: -0.104
TTCGTCAA: 0.184
CGATTTAG: 0.188
CTTTACGC: 0.00786
AGAACGAC: -0.0409
GCGCAGGA: -0.237
CTTGGTAC: -0.0377
CCGCAAAG: -0.106
CCTAAAGC: -0.206
GAGGAGAC: -0.233
ACGTCTAG: 0.14
ACACGTCG: -0.225
ATGATTAG: 0.271
ACTAGGAG: -0.165
ACGAGAGG: -0.104
AAAGGCAC: -0.0494
GGCTATTA: 0.203
AAAGGTGG: -0.0096
CACCCCCG: -0.178
ATTCCCGA: -0.0202
CGTATTTC: 0.22

Excerpt of the above (block 3):
LQLRRQHSFSEDS [L7H]: 0.0955
LQLRRQRSFSEDS [L7R]: 0.0215
LQLPRQLSFSEDS [R4P]: -0.0138
LQLRGQLSFSEDS [R5G]: 0.00422
LQLRRQLSMSEDS [F9M]: 0.392
LQLRRQLSQSEDS [F9Q]: 0.397
LQLRIQLSFSEDS [R5I]: 0.352
LQLRQQLSFSEDS [R5Q]: 0.143
LQLRRQFSFSEDS [L7F]: -0.276
LQLRRQLSFVEDS [S10V]: 0.175
LQLRRQLLFSEDS [S8L]: 0.615
LQLKRQLSFSEDS [R4K]: 0.179
